Measured values of several laboratories.
Numbers after ± are the reported error.

| Structure (SMILES) | assay | test system | setting | tissue uptake |
| --- | --- | --- | --- | --- |
| CCCC[C@@H]1NC(=O)[C@@H](NC(=O)[C@H](CCC(=O)O)NC(=O)CNC(=O)CN2CCN(CC(=O)O)CCN(CC(=O)O)CCN(CC(=O)O)CC2)CCCCNC(=O)C[C@@H](C(N)=O)NC(=O)[C@H](C(C)C)NC(=O)[C@@H]2CCCN2C(=O)[C@H](CCCNC(=N)N)NC(=O)CNC(=O)[C@H](Cc2c[nH]c3ccccc23)NC(=O)[C@H](CCCNC(=N)N)NC(=O)[C@@H](Cc2ccccc2)NC(=O)[C@H](Cc2c[nH]cn2)NC(=O)[C@H](CCC(=O)O)NC1=O [gallium-67 labelled] | – | C57 mice, B16/F1 flank melanoma, skin | intravenous, 0.037 MBq/mouse, 24 h | 0.07 ± 0.06 %ID/g |
| CCCC[C@H](NC(=O)CNC(=O)CNC(=O)CN1CCN(CC(=O)O)CCN(CC(=O)O)CCN(CC(=O)O)CC1)C(=O)N[C@H]1CC(=O)NCCCC[C@@H](C(N)=O)NC(=O)[C@H](Cc2c[nH]c3ccccc23)NC(=O)[C@H](CCCNC(=N)N)NC(=O)[C@@H](Cc2ccccc2)NC(=O)[C@H](Cc2c[nH]cn2)NC1=O [lead-203 labelled] | – | C57 mouse, kidneys | intravenous, 0.056 MBq, 4 h | 6.66 ± 1.26 %ID/g |
| C[C@H](CN(C)Cc1ccccc1)NC(=O)c1ccc(-c2noc(C(F)(F)[18F])n2)cc1 | PET imaging | female Sprague-Dawley rats, heart | intravenous, 60 min | 0.48 ± 0.18 SUV |
| OCc1cn(Cc2ccc(-c3noc(-c4ccc(OCC[18F])c(C(F)(F)F)c4)n3)cc2)nn1 | – | female Lewis rat, kidney | intravenous, 60 min | 1.91 ± 0.1 %ID/g |
| O=C([O-])CN1CCN(CC(=O)[O-])CCN(CC(=O)NCCc2ccc3c(c2)C2C=CCC2C(c2cc4c(cc2Br)OCO4)N3)CCN(CC(=O)[O-])CC1.[111In+3] (centres unmarked) | – | mouse, Hec50 endometrial tumour, uterus | 1 h post injection | 0.73 ± 0.09 %ID/g |
| CC(C)[C@H](NC(=O)[C@@H]1CCCN1C(=O)[C@H](CCCNC(=N)N)NC(=O)[C@H](CS)NC(=O)[C@H](Cc1c[nH]c2ccccc12)NC(=O)[C@H](CCCNC(=N)N)NC(=O)[C@@H](Cc1ccccc1)NC(=O)[C@H](Cc1c[nH]cn1)NC(=O)[C@H](CCC(=O)O)NC(=O)[C@H](CS)NC(=O)[C@H](CS)NC(=O)CNC(=O)[C@@H]1CC(=O)N[C@@H](CCCNC(=N)N)C(=O)NCC(=O)N[C@@H](CC(=O)O)C(=O)N[C@H](Cc2ccc(O)cc2)C(=O)N1)C(N)=O [technetium-99m labelled] | – | C57 mouse, female, B16/F1 melanoma, skin | intravenous, 0.037 MBq, 4 h | 1 ± 0.39 %ID/g |
| CN(C)c1ccc(-c2nc3ccc(OCCCCCN4CCN5CCN(CC4)CC(=O)[O][Al]([18F])[O]C(=O)C5)cc3s2)cc1 | – | ICR mouse, bone | intravenous, 30 min | 1.38 ± 0.45 %ID/g |
| CCCC[C@H](NC(=O)CNC(=O)CNC(=O)CN1CCN(CC(=O)O)CCN(CC(=O)O)CCN(CC(=O)O)CC1)C(=O)N[C@H]1CC(=O)NCCCC[C@@H](C(N)=O)NC(=O)[C@H](Cc2c[nH]c3ccccc23)NC(=O)[C@H](CCCNC(=N)N)NC(=O)[C@@H](Cc2ccccc2)NC(=O)[C@H](Cc2c[nH]cn2)NC1=O [gallium-67 labelled] | – | female C57 mice, B16/F1 melanoma, blood | intravenous, 0.037 MBq, 4 h | 0.53 ± 0.25 %ID/g |
